Results gathered from unrelated publications.
Parts stem from different laboratories: compare values within a part only. Positions count from the first letter of the parent shown.

Sample 1 — method: RNA Bind-n-Seq; form: RNA; matrix: in vitro; concentration: not given; notes: RNA with constant flanks, ends assumed; relative to: input RNA pool; reading: higher = stronger binding; endpoint: bound/input enrichment
Target: RING finger protein unkempt homolog, zinc fingers 1-6, GST-SBP tag (UNK, Homo sapiens, UniProt Q9C0B0, residues 30-357)
Sequence of UniProt Q9C0B0 (30-357, looked up): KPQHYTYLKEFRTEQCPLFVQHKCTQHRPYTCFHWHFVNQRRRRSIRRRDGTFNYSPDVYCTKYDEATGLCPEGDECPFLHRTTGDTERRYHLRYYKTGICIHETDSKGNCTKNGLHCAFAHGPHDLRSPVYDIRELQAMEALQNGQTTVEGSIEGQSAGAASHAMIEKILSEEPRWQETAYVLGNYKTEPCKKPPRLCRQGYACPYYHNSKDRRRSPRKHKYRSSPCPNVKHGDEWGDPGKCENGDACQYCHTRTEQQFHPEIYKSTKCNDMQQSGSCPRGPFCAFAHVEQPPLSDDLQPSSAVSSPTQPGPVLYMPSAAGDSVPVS
Shared flanks, not repeated: GGGAGUUCUACAGUCCGACGAUC … CAACAGAGGAUUGAGCAUCA
Sequence = CAUGUCAUGCAUUUUUCUAAAUGGGCAGUUUCCAGUGGCAGCAGUACAGCAUUACUUUACCGCAAACGACUGAUUACAUACCGGUUACGGCACCUCCUUCGUGCAAGGUGUGAUGCAUCC; value = 0.132 ratio
Sequence = GAAAGAGAAGCUAAAACAACUGAUUGAGAAGAGGAUUGGCAAAGAGAAUUUCAUAGAGAAACCCGGAUUUAUUAGCAAACAUGAGUUGUAUUCCAGAGCAUCUCAGAAACCCCAGCCAAA; value = 2.16 ratio
Sequence = GCCUGGGAGAUUAACAGGAAACUUCCAAGAUGGAAACUUUGUCUUUCCCCAGAUAUAAUGCCGCUGAGAUUGUGAUUCAUAUUCGCAAUAAGAUCUUAACAGGAGCUGAUGGUAAAAACC; value = 0.223 ratio
Sequence = GGUUUGCAAAUUUUUUUUAAAUGCAAUCUUUUUAUUUUUCUACUUGGUUUUGGUUAUAAUCACCGAAAGCAAGAAACUAUUAUUGAAAUUAAUGUUUUCUUCUGAUAUAAUAAUGGAAGC; value = 1.4 ratio
Sequence = UUUUUAUGUAGGCGAGCUAACACAGUGUACCUAAUUGCAGAAUUAUCUGAUUAAUUUGUAACCGAUAAGUUGUAUAACAUUUUCAUAUCUUAAAAUGUUUUUUAGAUCAAUCUUGAAGUG; value = 0.326 ratio
Sequence = ACAAUUGGUUUUAACGUGGAAACUGUAGAAUAUAAAAAUCUAAAAUUCACUAUUUGGGAUGCCGGUGGAAAACACAAAUUAAGACCAUUGUGGAAACAUUAUUACCUCAAUACUCAAGCU; value = 0.261 ratio
Sequence = CUAGAGGAUUACUACCAAAGUGGAAGAAUGCUUUUGCGAAUGUCUCAAGCUCUGGGUCGAACCGUUUUGGCUGGGCGUGAAAUGACUAGAUUGGCCGGUUUUACUGCUCGGAUUACAGAA; value = 0.168 ratio
Sequence = CUGAAGCCAGCCAAUGUCUUCCUGGACAGCAAACACAAUGUCAAGCUGGGGGACUUUGGACCCGCCCGAAUAUUAAAUCACGACACGAGUUUUGCAAAAACGUUUGUUGGCACACCCUAU; value = 0.17 ratio
Sequence = CCCGUGUAAACAUUCUUUUUCCAAGGGGGAAAAUGGUGUUAUUUACAUGAAUCGUGAUCAAACCGCCUCUAAAAACAGUUUUCUAAGCAGGAGGCUCAGUGGAACUCCGAGCUCCGCUCC; value = 0.17 ratio
Sequence = CAGGCUUACGCUCCAGAAGAGGCAGCCCAAGAGGAGGAAUCAGUUCUCUGGACGAUAUUGAUCCGCAUUUUGAAACUGGUGCUUGAAAUUCUCUUCUGAUCCCUUGAAUAUGCUGGAGCA; value = 0.145 ratio
Sequence = AGAACUGACUCUCUUCCGUGGAAGAGAUGAACUGAGGAGAACCACCUCUUUUUUACCGAUGACUUUAUUUCUAAAUUAUGACCAAAAGAUAUUUUGCUAUUUCUUUCUUUAUAUAUGGAC; value = 0.584 ratio

Sample 2 — target: CEBPA, bZIP domain (human); method: DHFR protein complementation; matrix: yeast; relative to: wild-type JUN-FOS pair; reading: higher = stronger binding; endpoint: binding fitness
Notes: single substitutions, most at no-binding floor
Parent: JUN, bZIP domain (human); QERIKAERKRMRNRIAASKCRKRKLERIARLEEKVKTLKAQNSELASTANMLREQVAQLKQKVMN; partner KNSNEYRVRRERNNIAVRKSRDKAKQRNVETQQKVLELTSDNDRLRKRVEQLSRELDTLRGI
Substitution = L31A; value = -1.49 natural log
Substitution = L31R; value = -1.5 natural log
Substitution = M51I; value = -1.5 natural log
Substitution = Q55R; value = -1.29 natural log
Substitution = V35K; value = -1.51 natural log
Substitution = E32F; value = -1.4 natural log
Substitution = K39W; value = -1.53 natural log
Substitution = M51K; value = -1.43 natural log
Substitution = S47E; value = -1.37 natural log
Substitution = K36V; value = -1.5 natural log
Substitution = A57W; value = -1.51 natural log
Substitution = R30N; value = -1.36 natural log
Substitution = Q41S; value = -1.5 natural log
Substitution = N42F; value = -1.49 natural log
Substitution = T37P; value = -1.52 natural log
Substitution = L45V; value = -1.5 natural log
Substitution = N42V; value = -1.54 natural log
Substitution = R53L; value = -1.52 natural log
Substitution = Q55A; value = -1.48 natural log
Substitution = S47D; value = -1.43 natural log
Substitution = K34V; value = -1.37 natural log
Substitution = S47F; value = -1.4 natural log

Sample 3 — method: RNA Bind-n-Seq; form: RNA; matrix: in vitro; concentration: 365 nM; relative to: no-protein control; reading: higher = stronger binding; endpoint: RBNS enrichment (R)
Target: RNA binding protein fox-1 homolog 2, RRM domain, GST-SBP tag (RBFOX2, Homo sapiens, UniProt O43251-10, residues 100-194)
Notes: natural RNA segment, single round, ends assumed
Shared flanks, not repeated: GGGAGUUCUACAGUCCGACGAUC … UGGAAUUCUCGGGUGCCAA
Target sequence (chain): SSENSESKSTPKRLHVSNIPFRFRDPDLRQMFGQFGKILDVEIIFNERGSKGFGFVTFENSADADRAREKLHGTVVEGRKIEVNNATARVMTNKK
Sequence = CCUGAUUGACAGGAAUUUGCUGUCCUUGACACUCCACACAUUGUGUUCCUCACGUGUGGGACAGGACACAGAGCUGACUGAGCGUGGGACACUCCACAGCCUUCUCAUGA; value = 0.337
Sequence = AAAACAAAACAGAAAUCAAAAGUACACUCAAGUUCUUGUCCUGUAUCAAAUAUCCCUAGGUCAUCUGCCACCCACUUUCCAAGACCUUUCUCCUACUCAACCAGGAAGUC; value = 0.368
Sequence = AGGCACAGGAAAGCAAAGGAAAUGUGCCACCCUUUAGCCUGGCAGGGUCUCCCUGCCCACUGGGCUGUUCCAGACCUGUGAUACUGUGUUUGUAUGUUGAUAUCCCAUGU; value = 0.643
Sequence = ACUCUCCACUAAUUAUACUUAAAAGUCCAAAAAUUUUUUCUUUAGUAACAGACUUAGGUACUGCUAAGCAGUUAUUAACACAAUAUUCCUUAGUUUUCAUAUGUUGGUUA; value = 1.25
Sequence = UUUUCUUCAGUUGGUGUGUUUUUGGGAUGUCUUAUUUUUAGAUGGUUACACUGUUAGAACACUAUUUUCAGAAUCUGAAUGUAAUUUGUGUAAUAAAGUGUUUUCAGAGC; value = 0.752
Sequence = GUGGUGCAGUGUCUCUCUUUGUAGGGACUACAAGAAAUAACUUUGAAGGCAAGAAAGUCAUUAGCUUAGAAUAUGAAGCGUAUGUACCGAUGGCAGAAAAUGAAAUCAGA; value = 0.541
Sequence = CUUCCAGAUUUUCUUUGGGGGUUAGAAGGUCGGAUGUGGAGUUGACACUUGUUAGUCUCUGUGAGCCCAGGCCUGAGCUGGGGGAAAGUAGGAAGAUUUGGGCAUAUAUG; value = 1.06
Sequence = CUGCCCCACAGCAUCUGUGCCAUGCAAUGAGGGCUUUGGUUCCUGGCUUCUGGGAGCCUUUUGACAGCUGGUCCCUGCCUCGGUUGAUUGUGCAUGGAACUAAAAUGUUA; value = 1.13
Sequence = CUAGCCCUGCAGUUCCCACCUUUGAGGUUUUGUUAUGGUAAGUCCCCAAGUCCAGUACCUCUGGUAAAGUGGACUUCUUCCCCCAUCCCUAGAACCAGGGACCUAGAAAC; value = 0.448
Sequence = AACCAGGAGUGAAUUUCAAAUGAGAUGUAAUCGACUUUAUAUCUUAGUCACGGAGUUGCCAUGGCAUGUAGUAGAAAACCACAGGAAGAAUGGUCAUAUUCACUUUGUGG; value = 0.294
Sequence = CACAUUCUUUGCAUCUGUAUUGUACCAGCUUUAUAGCACUGUUUCAUGCCAAAGUUCUGAUGACGUAACCAGUUGACCCUUCACACAGAGUGCCCUUUCCCCCCCUCCCC; value = 1.01
Sequence = GCCAUGCACCAGGACUGGCUGUGUAACCUUGGGUGGCCCCUGCUGUCUCUCUGGGCUGCAGAGUCUGCCCCACAUGUGGCCAUGGCCUCUGCAACUGCUCAGCUCUGGUC; value = 0.316

Sample 4 — target: OGT, full length, His-tagged (human); method: phage display, sequencing; matrix: in vitro; concentration: 1 µg OGT; relative to: input library; reading: higher = stronger binding; endpoint: fold enrichment
Notes: single substitutions, 15-mer displayed peptide, unchanged parent 6.14
Parent: peptide; VAYPNSYMPKYQIST; partner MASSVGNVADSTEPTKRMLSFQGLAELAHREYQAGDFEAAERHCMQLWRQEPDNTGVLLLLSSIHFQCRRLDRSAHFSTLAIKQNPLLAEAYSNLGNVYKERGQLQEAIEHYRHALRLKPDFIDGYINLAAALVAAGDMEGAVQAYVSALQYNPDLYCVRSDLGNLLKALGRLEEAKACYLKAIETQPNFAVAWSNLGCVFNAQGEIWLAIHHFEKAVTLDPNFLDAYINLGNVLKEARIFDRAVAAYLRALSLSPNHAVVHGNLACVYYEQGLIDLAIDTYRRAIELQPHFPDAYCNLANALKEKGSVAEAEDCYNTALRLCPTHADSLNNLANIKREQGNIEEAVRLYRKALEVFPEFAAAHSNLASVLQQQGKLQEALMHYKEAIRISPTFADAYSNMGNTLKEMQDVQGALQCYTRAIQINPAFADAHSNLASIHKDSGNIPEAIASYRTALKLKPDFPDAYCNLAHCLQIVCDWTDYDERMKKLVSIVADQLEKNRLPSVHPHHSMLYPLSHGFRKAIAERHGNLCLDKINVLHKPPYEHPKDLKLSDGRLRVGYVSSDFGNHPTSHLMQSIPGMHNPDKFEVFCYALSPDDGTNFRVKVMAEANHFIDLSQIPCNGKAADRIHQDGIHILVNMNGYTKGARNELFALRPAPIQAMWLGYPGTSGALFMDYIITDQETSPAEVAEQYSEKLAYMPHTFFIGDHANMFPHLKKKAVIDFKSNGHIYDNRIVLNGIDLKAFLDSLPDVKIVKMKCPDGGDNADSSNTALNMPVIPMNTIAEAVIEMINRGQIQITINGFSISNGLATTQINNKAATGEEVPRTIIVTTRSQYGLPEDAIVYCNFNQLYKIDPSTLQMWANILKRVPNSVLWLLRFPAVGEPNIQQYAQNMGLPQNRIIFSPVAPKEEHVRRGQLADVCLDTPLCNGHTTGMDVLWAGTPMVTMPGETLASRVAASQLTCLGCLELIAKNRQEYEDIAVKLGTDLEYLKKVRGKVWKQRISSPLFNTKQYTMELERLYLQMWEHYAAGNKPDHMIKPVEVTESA
Substitution = S6T; value = 8.23 fold
Substitution = S14W; value = 6.92 fold
Substitution = Q12P; value = 0.664 fold
Substitution = Y11Q; value = 1.27 fold
Substitution = Y7S; value = 0.634 fold
Substitution = Y7F; value = 6.82 fold
Substitution = V1N; value = 7.41 fold
Substitution = V1D; value = 9.04 fold
Substitution = N5Y; value = 6.26 fold
Substitution = T15M; value = 5.13 fold
Substitution = V1I; value = 4.91 fold
Substitution = M8P; value = 3.35 fold
Substitution = Y7E; value = 0.567 fold
Substitution = I13R; value = 0.503 fold
Substitution = S14F; value = 10.3 fold
Substitution = P9K; value = 0.411 fold
Substitution = P9H; value = 0.983 fold
Substitution = V1E; value = 6.52 fold
Substitution = V1T; value = 7.28 fold

Sample 5 — target: CCNA2, cyclin fold, Cln2 fusion (human); method: yeast growth competition, sequencing; matrix: yeast; notes: strong parent motif; relative to: not given; reading: higher = stronger binding; endpoint: normalised enrichment score
Parent: INSM1 docking peptide (human); PKAIRKLHFEDEV; partner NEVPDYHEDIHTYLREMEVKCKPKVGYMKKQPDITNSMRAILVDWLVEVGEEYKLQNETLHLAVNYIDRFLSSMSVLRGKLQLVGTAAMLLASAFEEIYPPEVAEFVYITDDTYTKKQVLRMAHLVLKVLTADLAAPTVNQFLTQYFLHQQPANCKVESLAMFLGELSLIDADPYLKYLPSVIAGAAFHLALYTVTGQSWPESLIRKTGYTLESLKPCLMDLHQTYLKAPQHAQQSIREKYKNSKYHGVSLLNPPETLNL
Substitution = R5Q; value = 2.08
Substitution = L7I; value = 2.94
Substitution = R5S; value = 0.717
Substitution = K2H; value = 4.82
Substitution = E10L; value = 4.22
Substitution = F9Q; value = 0.177
Substitution = L7K; value = 0.125
Substitution = L7W; value = 0.152
Substitution = K6H; value = 4.19
Substitution = I4P; value = 4.11
Substitution = I4S; value = 5.79
Substitution = D11Y; value = 4.79
Substitution = L7S; value = 0.0461
Substitution = E10T; value = 5.12
Substitution = H8A; value = 4.69
Substitution = E10D; value = 5.2
Substitution = K6I; value = 2.33
Substitution = A3S; value = 3.57
Substitution = K2S; value = 5.01
Substitution = I4V; value = 5.55
Substitution = H8I; value = 5.89
Substitution = A3M; value = 2.75
Substitution = E12L; value = 5.28
Substitution = K2Y; value = 3.59
Substitution = K6N; value = 1.83

Excerpt of the above (sample 5):
Substitution = L7I; value = 2.94
Substitution = R5S; value = 0.717
Substitution = K2H; value = 4.82
Substitution = E10L; value = 4.22
Substitution = F9Q; value = 0.177
